Published values of several laboratories.
Every numbered part comes from another study and shows a few of its results, in no order.

Sample 1
Target: RNA binding protein fox-1 homolog 2, RRM domain, GST-SBP tag (RBFOX2, Homo sapiens, UniProt O43251-10, residues 100-194)
Method: RNA Bind-n-Seq
Molecule type: RNA
Sample: in vitro
Concentration: 365 nM
Setting: natural RNA segment, single round, ends assumed
Relative to: no-protein control
Reading: higher = stronger binding
All sequences stand within: GGGAGUUCUACAGUCCGACGAUC … UGGAAUUCUCGGGUGCCAA
Target sequence (chain): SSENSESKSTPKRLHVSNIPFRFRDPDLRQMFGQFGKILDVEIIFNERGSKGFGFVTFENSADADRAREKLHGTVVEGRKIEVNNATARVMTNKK
Oligonucleotide	RBNS enrichment (R)
UCCUGCCCAGACCUGCGGUCCCAGCAUCCCCCAGAGCCAGGGAACAGGCCCAGCGGGAGGGGGUUUUAUGUUUUGUUUCAAACAGAAAACACAACCUUAUUUUUCUUUAC	0.354
UGCCAUCAGACAUUAAGCUGUAGCUGGCUCUGGCCAGCUGCUCCAGUGUACCAGAACCUGAGGAUGCUCGCUGCAAGGCCUCAGUUCUCAGGCCUUAGGGUGUAUUUGUC	0.302
AAGGACAGGACUUGCGACCUUGAAGCCAAAGGAAUCUCACUUGUGGGGCCUCCUUGUCAGCUCUGCUGCUGUCUCAGAGCCAUCUGGAUGAGUGUCCCGACACCCUCUCG	0.378
UCAGCACCUCUGAGGUGUGCAUUAGCCACUUAUAGCAGCAGUCUGUACUCUUUCAAGUACGCAAGCUUUGACUUCACUACUUGCUGUAGCCUGUCCCCACUGUCUAUCCA	0.3
UUCAAAGCAGCUACUCAACUAACACCUUGCAGUCUUGGAGUUAGUAUAAUACUGCUAAGAGAAGCCGGAAGCUUUUUUUUCUUGGAUUGCUUAUGAGCAGUAAUUUAAGA	0.421
GAACCUUUCCCGUUACUGCGUUUUCACCACCUGUCUUCCCCAUGCUUUAUUUAUCUGUAUGAACACAGAUUUGACAUUACAGCUAAGGAAAUAAUUUGAGUUGAUUCAGA	0.4
ACGUUAUUAUAUUGUCGAAUUCCUACUGACAACAUUAUAACUGUAUGGGAGCUUAACUUUAUAAGGAAAUGUAUUUUGACACUGGUAUCUUAUUAAAGUAUUCUGAUCCU	0.707
GCCUAGUCUCCCUCUCCCACUCCUUCUGAUGACACUAGCAAUGCAUUCCAUCUGACCUGACUUUAUCAUAGAGGCAAAAUUGUUCAGAACACUGGCUGGAGAUGGGGAGA	0.629
AGAGUAGAUCAUUUUAAUAAGAAUUAUUUAAUCCCAUACAAGUUUUCUUUGCAGGAGCUAGCCCAAAGGCAUCAAAUUUAAUAUGAUAAAAUGAAUUGCUAUACCUUAGA	0.832
CAAGGAGUAUUAUGUUAAACAUAACACCACCAGUCGUAUGCGAACUUAAAACAGAAUUAUUUCUAUACACACACCUGAAUACUUUGACAAUGAGAUUUAACUUGUUGAAU	0.213
UUAUAUAAUGCACAACUGUUGAUGACUGGCUGUAUAGUUUUUAGUCUCUGUAGCUAAUUUAAUUUGCUCUUCGUGUGGCAGAUCAUUCUGCCAAAAUACUUGAACACUGU	0.285
GUGGGCAACAUCCUCACUAAGCUGGUUAUGAAUAUAACCAGUGACUUCAACUUUGGCAUUUCAUUCAUACUUCUGUAGAGAACGGAAAACUAUUGUCCAUUAACAUGAUA	0.242

Sample 2
Target: Histone acetyltransferase KAT6A, both winged helices, GST fusion (KAT6A, Homo sapiens, UniProt Q92794, residues 1-181)
Method: protein binding microarray
Molecule type: double-stranded DNA, one strand shown
Sample: in vitro
Concentration: not given
Setting: 8-mer, flanks averaged, mean of 2 arrays, mostly near background
Relative to: not given
Reading: higher = stronger binding
Construct (chain): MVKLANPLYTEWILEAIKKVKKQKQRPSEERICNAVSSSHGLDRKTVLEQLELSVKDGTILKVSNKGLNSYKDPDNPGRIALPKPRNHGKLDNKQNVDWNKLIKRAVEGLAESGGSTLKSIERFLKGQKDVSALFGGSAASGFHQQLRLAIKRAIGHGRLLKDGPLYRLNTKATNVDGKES
Oligonucleotide	E-score
ACTACACA	-0.115
AGGCAAGC	-0.126
TCTACACA	-0.146
ATGACAGG	-0.107
GCTCCACC	-0.111
GGGAACAA	0.016
TATATAAA	-0.0224
AAGTATCA	-0.188
CATGGGCG	0.0484
ACTACGAC	-0.122
TAGTTGAA	-0.0796
CTAGGACA	-0.104
GCGACATA	0.186
CCTACGTA	0.0192
ATGGAGCA	-0.05
CGGATCTC	0.0815
ATTGAGAG	-0.0872
CGATCAGA	0.0294
GCCCAATA	-0.121
CTACGGCC	0.164
GGGATTAC	-0.0832
CTGAGTGC	-0.0701
AGGTATTC	-0.0774

Sample 3
Target: RING finger protein unkempt homolog, zinc fingers 1-6, GST-SBP tag (UNK, Homo sapiens, UniProt Q9C0B0, residues 30-357)
Chain of UniProt Q9C0B0 (30-357, looked up): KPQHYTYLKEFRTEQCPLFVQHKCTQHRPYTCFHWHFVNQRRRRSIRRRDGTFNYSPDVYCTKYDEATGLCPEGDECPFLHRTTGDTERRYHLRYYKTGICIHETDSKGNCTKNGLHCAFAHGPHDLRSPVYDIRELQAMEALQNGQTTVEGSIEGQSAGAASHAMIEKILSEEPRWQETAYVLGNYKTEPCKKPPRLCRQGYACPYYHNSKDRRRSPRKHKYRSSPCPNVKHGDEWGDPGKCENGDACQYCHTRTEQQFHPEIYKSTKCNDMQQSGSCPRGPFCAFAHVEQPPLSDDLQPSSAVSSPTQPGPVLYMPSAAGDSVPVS
Method: RNA Bind-n-Seq
Molecule type: RNA
Sample: in vitro
Concentration: not given
Setting: RNA with constant flanks, human and mouse sites, ends assumed
Relative to: input RNA pool
Reading: higher = stronger binding
All sequences stand within: GGGAGUUCUACAGUCCGACGAUC … CAACAGAGGAUUGAGCAUCA
Oligonucleotide	bound/input enrichment [ratio]
UCUGCACUUGUUUUAAGAGCCCAAGCCUCUGAGGUCUUACUUGAAGAGUUACAACAGAGCUUUUCCCAAGCAAAGAGGGACGUUCAGGAGCAGAUGGCGGUGCUGAUGCAGUCACGUGAA	0.183
AAGUCCUCAUUGACAAUUCAGUUUGUUGAAGGCCAAUUUGUUGAUUCCUACGAUCCAACCAUAGAGAACACGUUCACCAAGUUGAUCACGGUAAAUGGUCAAGAGUAUCAUCUUCAGCUU	0.154
GUUGGCUGGCUCCGAUCAAAGAAGGCUGUUGACUGGCGACUGUUUCGAAACAUUUUUAUGGCCUGGUUUGUCACGGUCCCCAUCUCUGGGGUUAUCAGUGCCGCUAUCAUGGCAGUAUUC	0.262
AGCUGUGCCUGCUAAAAUGGAUCAGUGAGAGAGGUUCCUGGACCUGUGAACUUUGCUGUUAUAGAUACCAUGUUAUAGCCAUUAAAAUGAAACAACCUUGCCAGGUCUCAUUGUUCAUGA	1.95
AGAAUGUCCCACUUGCUGUCUCUUAGAGGCUGAGCUUCAUUUCUAUGAGCAAAGAGCUCAUUUAGCAAUGUAGUUAUUUCAGUAUUUAUUUCUAUUAUGGAAUCCCUGGGGUUCAGAAUG	2.08
AGAGAAAAAAUUGAUUUUCAGCAUGCUCAUGGGUUACAAGAAUUGGAAUUUAUUCGAGGACAUUCUGAUACAGAAGCAGCAAGACUGUGUGUGGACCAGUGGCUAAAAAUGCCAGGACUC	0.172
AGGUGGCUGCCGCGGCCGCCGAGGAGUCCCUUGCUGAAGGCGGACCGCGGAGCGGCGGGCGGCGCGCGCGCGCCCGAGCGACGGCUGUUGGAGAAGUGGAGCGGCGGCGGUGGAGGAGGG	0.661
UACUGUCAAGGACAGUCUUUUCUUGCUGCUGUACUACUGUUGCAUAUGCCAGAGGAGCAAGCAUUCUGUGUUUUGGUGACUAUUAUGUAUGGUUAUAAAUUGAGAGACUUAUACAGAAAC	0.244
CAAACGUUGUUGGGAAUAAUUGUGAGGAUGAAGUUUUUGCUGCUGCAGCAGAAGUACCUAGAAUACCUGGAGGAUGGCAAGGUCCUGGAGGCACUUCAAGUUCUACGCUGUGAAUUGACG	0.215
GACAACUCUGUCCCUACGACCGGGUCGUUAAGCGCCGUUGCAGCCAUGGCUACUGCUCUAGGAUUUCGCUGCCUUUUCCGAACGCGACCUGCGCCGCUCUGUCGGCACGUCGACCGGCUG	0.137
CCCAACCCCUGAGGCCUACAUCCAUCGAGCUGGCAGGACAGCACGCGCUAACAACCCAGGCAUAGUCUUAACCUUUGUGCUUCCCACGGAGCAGUUCCACUUAGGCAAGAUUGAGGAGCU	0.654

Sample 4
Target: Phosphate system positive regulatory protein PHO4, full length, GST-tagged (PHO4, Saccharomyces cerevisiae, UniProt P07270, residues 1-312)
Method: competition protein-binding microarray
Molecule type: double-stranded DNA, one strand shown
Sample: in vitro
Concentration: 2 µM
Setting: whole 60-bp probe, lowest competitor level
Together with: Cbf1 competitor, 0.05 µM
Reading: higher = stronger binding
All sequences stand within: … GTCTTGATTCGCTTGACGCTGCTG
Construct (chain): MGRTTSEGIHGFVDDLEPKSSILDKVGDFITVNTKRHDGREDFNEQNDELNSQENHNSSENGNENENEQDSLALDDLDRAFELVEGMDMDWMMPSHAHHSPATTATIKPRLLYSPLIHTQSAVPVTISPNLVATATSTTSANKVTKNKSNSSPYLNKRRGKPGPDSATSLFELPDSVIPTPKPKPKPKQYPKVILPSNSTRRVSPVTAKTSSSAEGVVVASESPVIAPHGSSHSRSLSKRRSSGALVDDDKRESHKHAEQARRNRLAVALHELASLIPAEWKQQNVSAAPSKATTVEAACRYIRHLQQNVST
Oligonucleotide	fluorescence intensity
ATGCTGGGGATGAAACACGTTGGACGTTTTGGGGCG	10900 a.u.
GGGAGACAGCGCGGCCACGTGACGGGCTTCCTCTTT	13500 a.u.
CTAACGAAGGTTTGATGAGTGGGTGACAAGCCAAGT	4160 a.u.
GTCTTGTCTCATTGGGGCGTGGGTGTCCCCACTTCA	8800 a.u.
CTAACGAAGGTTTGTCACACCACTTACAAGCCAAGT	4350 a.u.
TCTACAAGAGGTACCCACGTATTGCTCCATTGAGAG	7570 a.u.
AAATAAAGCCTAAAGCGCGTGGTGAGTACGAAAAAA	9400 a.u.
GATGAACTGAAAAGGCACATGAGAACGCATACAGGG	7210 a.u.
AGGTCCGCTGGAAAGCACGATCTCCGACGTAGTGGA	7050 a.u.
TGCGCAACAACTTGCAAGGTGGGTGTATGTCTAGAA	5130 a.u.
CTTTCCCGATCTTGTCACTTCACTTTAGCACATTTG	4040 a.u.
CGGGGTTAAGTTTGCCAAGTGGGTGGCTTGCAGCAG	4230 a.u.
CCATCTGCAGGACATCACATGCAAGCACTTGAAGCT	8220 a.u.
TTTCTTCCTCTTGACAGCGTGCAAAGCCATTGATAG	7350 a.u.
TCCGCACACAGAGGTTATGTGACGGTGGTAACCGTA	4750 a.u.
CAGGCTGGTCGACCTCACGGGCGCTGATCGCGGCAA	4230 a.u.

For quick reference, copied from above (sample 1):
Oligonucleotide	RBNS enrichment (R)
UUCAAAGCAGCUACUCAACUAACACCUUGCAGUCUUGGAGUUAGUAUAAUACUGCUAAGAGAAGCCGGAAGCUUUUUUUUCUUGGAUUGCUUAUGAGCAGUAAUUUAAGA	0.421
GAACCUUUCCCGUUACUGCGUUUUCACCACCUGUCUUCCCCAUGCUUUAUUUAUCUGUAUGAACACAGAUUUGACAUUACAGCUAAGGAAAUAAUUUGAGUUGAUUCAGA	0.4
ACGUUAUUAUAUUGUCGAAUUCCUACUGACAACAUUAUAACUGUAUGGGAGCUUAACUUUAUAAGGAAAUGUAUUUUGACACUGGUAUCUUAUUAAAGUAUUCUGAUCCU	0.707
GCCUAGUCUCCCUCUCCCACUCCUUCUGAUGACACUAGCAAUGCAUUCCAUCUGACCUGACUUUAUCAUAGAGGCAAAAUUGUUCAGAACACUGGCUGGAGAUGGGGAGA	0.629
AGAGUAGAUCAUUUUAAUAAGAAUUAUUUAAUCCCAUACAAGUUUUCUUUGCAGGAGCUAGCCCAAAGGCAUCAAAUUUAAUAUGAUAAAAUGAAUUGCUAUACCUUAGA	0.832
